Measurements from different studies.
Numbered parts are unrelated; each lists some results of a single study.

Sample 1
Target: Replicase polyprotein 1ab, nsp14 (rep, Severe acute respiratory syndrome coronavirus 2, UniProt P0DTD1)
Action: inhibitor
Structure (SMILES)	IC50
Cc1c(S(=O)(=O)N2CCn3cncc3C2)cc(C(=O)NCc2c(F)ccnc2N2CCCC2)n1C	0.23 nM
Cc1c(S(=O)(=O)N2CCc3n[nH]cc3C2)cc(C(=O)NCc2cccc3cnn(C)c23)n1C	0.18 nM
Cc1c(S(=O)(=O)N2CCC(C)CC2)cc(C(=O)NCc2c(F)ccc3occc23)n1C	11 nM
COc1ccccc1CNC(=O)c1cc(S(=O)(=O)N2CCc3ccccc3C2)c(C)n1C	7.2 nM
Cc1c(C(O)C2Cc3ccccc3C2)cc(C(=O)NCc2cccnc2N2CCCC2)n1C (stereo not shown)	> 6250 nM
COc1ccccc1CNC(=O)c1cc(C(=O)N2CCC(C)CC2)c(C)n1C	> 6250 nM

Sample 2
Structure (SMILES): Fc1ccccc1Cc1nc(-c2nc(C(F)(F)F)n[nH]2)cn2ccnc12
Species: healthy volunteers
Notes: single ascending dose
Baseline: placebo
setting	adaptive tracking performance [%]
50 mg	-0.42
1 mg	0.48
0.3 mg	0.96
10 mg	-0.07

Single results of other studies
uncharacterized protein: uncharacterized protein (Bacteroides thetaiotaomicron, UniProt Q8A183)
SMILES	target or system	assay	system	setting	scale	endpoint	result
O=P(O)(O)OC[C@H]1OC(O)[C@H](O)[C@@H](O)[C@@H]1O (stereo partly shown)	uncharacterized protein	activator, phosphate release	–	concentration not given, added: Mg2+	–	phosphatase activity	active
N#CCC1CCN(c2nc(Nc3ccc(N4CCC(O)CC4)cc3)c3c(=O)[nH]ncc3n2)CC1	–	Olink multiplex, refers to: CD163	human, serum	40 mg, day 15, unit not given	baseline: placebo	serum level change	-1.38
O=P(O)(O)OC1O[C@H](CO)[C@@H](O)[C@H](O)[C@@H]1O (stereo partly shown)	uncharacterized protein	activator, phosphate release	–	concentration not given, added: Mg2+	–	phosphatase activity	inactive

Excerpt of the above (sample 2):
setting	adaptive tracking performance [%]
0.3 mg	0.96
